Measurements collected from several papers.
Lines come from different studies, so protocols differ.

`C[C@](N)(Cc1ccc(O)c(O)c1)C(=O)O` has an inhibition of -13.4% (Nedd8-cullin1 interaction; neddylation, AlphaScreen; 100 µM).
With `CC1=C(Cn2cc(CNC(=O)OC(C)(C)C)nn2)C(=O)c2ccccc2C1=O` the killing was 54.2% (Schistosoma mansoni; adult worms; 25 µM, 24 h).
With `CC(C)NCC(O)c1ccc(O)c(O)c1` (centres unmarked) the sarcomere length was 1.72 µm (ventricular cardiomyocytes, C57BL/6 mouse; dose not given, 0.1 s).
For `CCOC(=O)[N-]c1cn(N2CCOCC2)n[o+]1`, the inhibition was 6.3% (Nedd8-cullin1 interaction; neddylation, AlphaScreen; 100 µM).
With `CC1=C(Cn2cc(CN3CCOCC3)nn2)C(=O)c2ccccc2C1=O` the killing was 47.2% (Schistosoma mansoni; adult worms; 10 µM, 72 h).
`CCOC(=O)[C@H](CCc1ccccc1)N[C@H]1CS[C@H](c2cccs2)CN(CC(=O)O)C1=O` gave an inhibition of 84.4% (Nedd8-cullin1 interaction; neddylation, AlphaScreen; 100 µM).
`CC1=C(Cn2cnc([N+](=O)[O-])n2)C(=O)c2ccccc2C1=O` has a killing of 48.1% (Schistosoma mansoni; adult worms; 10 µM, 72 h).
`Cc1ccc(Nc2cnnc3ccc(-c4ccc(N5CCN(C)CC5)cc4)cc23)cn1` — result for “phenotypic severity score”: 1 (Schistosoma mansoni; adult worms; 10 µM, 1 h; direction not given).
`CCN(CC)CCNC(=O)c1ccc(NC(C)=O)cc1` gave an inhibition of 35.5% (Nedd8-cullin1 interaction; neddylation, AlphaScreen; 100 µM).
The killing of `CC1=C(Cn2ccnn2)C(=O)c2ccccc2C1=O` is reported as 41.3% (Schistosoma mansoni; adult worms; 10 µM, 24 h).
With `CCn1cc(-c2cc(Cn3ccnc3)cc3c2CCN([C@H](c2cc(OC)ccn2)C2CC2)C3=O)c(C(F)(F)F)n1` the EC50 was 9.09 µM (RKO; cell growth, inhibitor; 120 h).
The sarcomere length of `O=C(O)CNC(=O)Cc1ccccc1` is reported as 1.62 µm (ventricular cardiomyocytes, C57BL/6 mouse; dose not given, 0.524 s).
For `CCOc1nc2cccc(C(=O)O)c2n1Cc1ccc(-c2ccccc2-c2nnn[nH]2)cc1`, the inhibition was 35.4% (Nedd8-cullin1 interaction; neddylation, AlphaScreen; 100 µM).
For `CCn1cc(-c2cc(Cn3ccoc3=N)cc3c2CCN([C@@H](C)c2cc(OC)ccn2)C3=O)c(C(F)(F)F)n1`, the EC50 was 0.0297 µM (JeKo-1; cell growth, inhibitor; 120 h).
For `CC1=C(Cn2cc(CN3CCNCC3)nn2)C(=O)c2ccccc2C1=O`, the killing was 43.5% (Schistosoma mansoni; adult worms; 10 µM, 24 h).
For `CCCCc1ncc(/C=C(\Cc2cccs2)C(=O)O)n1Cc1ccc(C(=O)O)cc1`, the inhibition was 79.4% (Nedd8-cullin1 interaction; neddylation, AlphaScreen; 100 µM).
Under “phenotypic severity score”, `Cc1ccc(Nc2cnnc3ccc(-c4ccc(S(=O)(=O)N5CCN(C)CC5)cc4)cc23)cn1` is recorded as 0 (Schistosoma mansoni; adult worms; 10 µM, 1 h; direction not given).
For `COc1cnc2cccc(N3CCc4c(cc(Cn5ccnc5C)cc4-c4cn(C)nc4C(F)(F)F)C3=O)c2c1`, the EC50 was 0.267 µM (HEC151; cell growth; 120 h).
For `CC1=C(Cn2ccnc2[N+](=O)[O-])C(=O)c2ccccc2C1=O`, the killing was 48.5% (Schistosoma mansoni; adult worms; 25 µM, 24 h).
Under “log2 fold change”, `Cn1cc(-c2ccc(-c3cncc(Cl)c3N3CCC4(CCNC4=O)CC3)cc2)cn1` is recorded as -2.81 (COLO 205; gene expression, microarray, item: ILF3 mRNA; concentration not given, 2 h; reference: untreated cells).
The inhibition of `COc1ccc2cc1Oc1ccc(cc1)C[C@H]1c3c(cc4c(c3Oc3cc5c(cc3OC)CCN(C)[C@@H]5C2)OCO4)CCN1C` is reported as 19.1% (Nedd8-cullin1 interaction; neddylation, AlphaScreen; 100 µM).
`CC1=C(Cc2cn(CCN3CCC(F)(F)CC3)nn2)C(=O)c2ccccc2C1=O` has a killing of 41.5% (Schistosoma mansoni; adult worms; 25 µM, 48 h).
With `CC[C@H](C)C(=O)O[C@H]1C[C@H](O)C=C2C=C[C@H](C)[C@H](CC[C@@H](O)C[C@@H](O)CC(=O)O)[C@H]21` the inhibition was 23.8% (Nedd8-cullin1 interaction; neddylation, AlphaScreen; 100 µM).
For `COc1ccc(Nc2cnnc3cc(-c4cnc(N5CCCN(C)CC5)nc4)ccc23)cc1`, “phenotypic severity score” read 1 (Schistosoma mansoni; adult worms; 10 µM, 24 h; direction not given).
`CC1=C(Cn2cc([Si](C)(C)C)nn2)C(=O)c2ccccc2C1=O` gave a killing of 39.8% (Schistosoma mansoni; adult worms; 10 µM, 48 h).
`OC(CCN1CCCCC1)(c1ccccc1)C1CC2C=CC1C2` (centres unmarked) — result for “change in EEG Beta3-power Pz-O1”: 1.4% (resting-state EEG; healthy elderly humans; oral, 4 mg, eyes open, LS mean; reference: baseline).

A few entries again:
`CC1=C(Cn2cc([Si](C)(C)C)nn2)C(=O)c2ccccc2C1=O` gave a killing of 39.8% (Schistosoma mansoni; adult worms; 10 µM, 48 h).
Under “log2 fold change”, `Cn1cc(-c2ccc(-c3cncc(Cl)c3N3CCC4(CCNC4=O)CC3)cc2)cn1` is recorded as -2.81 (COLO 205; gene expression, microarray, item: ILF3 mRNA; concentration not given, 2 h; reference: untreated cells).
With `CC[C@H](C)C(=O)O[C@H]1C[C@H](O)C=C2C=C[C@H](C)[C@H](CC[C@@H](O)C[C@@H](O)CC(=O)O)[C@H]21` the inhibition was 23.8% (Nedd8-cullin1 interaction; neddylation, AlphaScreen; 100 µM).
For `CC1=C(Cn2cc(CN3CCNCC3)nn2)C(=O)c2ccccc2C1=O`, the killing was 43.5% (Schistosoma mansoni; adult worms; 10 µM, 24 h).
